{"data": "Published values gathered from unrelated publications", "note": "Parts stem from different laboratories: compare values within a part only. Positions count from the first letter of the parent shown.", "chain of UniProt Q7L7X3 (whole entry, looked up)": "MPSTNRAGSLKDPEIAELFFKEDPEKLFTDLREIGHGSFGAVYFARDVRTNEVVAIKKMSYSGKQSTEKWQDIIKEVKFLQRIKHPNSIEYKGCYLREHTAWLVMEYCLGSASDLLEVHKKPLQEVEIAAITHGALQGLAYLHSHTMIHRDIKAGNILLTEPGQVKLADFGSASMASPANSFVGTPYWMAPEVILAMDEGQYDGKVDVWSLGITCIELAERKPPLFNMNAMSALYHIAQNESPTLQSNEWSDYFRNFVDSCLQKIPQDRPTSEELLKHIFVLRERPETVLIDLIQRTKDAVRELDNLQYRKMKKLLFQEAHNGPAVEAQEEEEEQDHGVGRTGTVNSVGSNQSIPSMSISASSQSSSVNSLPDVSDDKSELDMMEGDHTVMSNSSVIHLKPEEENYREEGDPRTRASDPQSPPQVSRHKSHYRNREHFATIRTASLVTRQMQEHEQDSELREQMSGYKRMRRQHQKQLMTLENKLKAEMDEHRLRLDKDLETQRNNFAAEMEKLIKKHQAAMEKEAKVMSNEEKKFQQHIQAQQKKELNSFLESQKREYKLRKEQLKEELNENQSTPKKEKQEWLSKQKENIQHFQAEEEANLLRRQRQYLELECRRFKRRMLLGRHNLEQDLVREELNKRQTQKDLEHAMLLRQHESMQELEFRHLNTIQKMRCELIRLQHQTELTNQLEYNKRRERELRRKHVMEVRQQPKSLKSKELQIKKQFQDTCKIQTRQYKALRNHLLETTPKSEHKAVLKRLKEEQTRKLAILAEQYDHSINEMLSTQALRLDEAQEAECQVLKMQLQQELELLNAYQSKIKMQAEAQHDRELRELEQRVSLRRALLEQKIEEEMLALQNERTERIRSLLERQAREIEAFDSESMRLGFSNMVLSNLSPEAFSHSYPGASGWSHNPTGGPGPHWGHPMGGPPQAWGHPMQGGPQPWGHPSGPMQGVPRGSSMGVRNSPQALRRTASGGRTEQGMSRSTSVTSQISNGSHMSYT", "chain of UniProt Q9UIK4 (whole entry, looked up)": "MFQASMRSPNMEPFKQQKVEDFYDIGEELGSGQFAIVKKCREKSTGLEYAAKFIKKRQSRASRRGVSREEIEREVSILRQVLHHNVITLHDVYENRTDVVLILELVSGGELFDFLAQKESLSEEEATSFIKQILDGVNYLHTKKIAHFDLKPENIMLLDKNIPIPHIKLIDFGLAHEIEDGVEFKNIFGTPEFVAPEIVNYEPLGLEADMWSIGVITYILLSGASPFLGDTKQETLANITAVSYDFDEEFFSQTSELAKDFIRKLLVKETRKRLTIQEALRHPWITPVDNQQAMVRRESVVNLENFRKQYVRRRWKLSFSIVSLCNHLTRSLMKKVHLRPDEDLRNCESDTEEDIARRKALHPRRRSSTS", "chain of UniProt P36897 (whole entry, looked up)": "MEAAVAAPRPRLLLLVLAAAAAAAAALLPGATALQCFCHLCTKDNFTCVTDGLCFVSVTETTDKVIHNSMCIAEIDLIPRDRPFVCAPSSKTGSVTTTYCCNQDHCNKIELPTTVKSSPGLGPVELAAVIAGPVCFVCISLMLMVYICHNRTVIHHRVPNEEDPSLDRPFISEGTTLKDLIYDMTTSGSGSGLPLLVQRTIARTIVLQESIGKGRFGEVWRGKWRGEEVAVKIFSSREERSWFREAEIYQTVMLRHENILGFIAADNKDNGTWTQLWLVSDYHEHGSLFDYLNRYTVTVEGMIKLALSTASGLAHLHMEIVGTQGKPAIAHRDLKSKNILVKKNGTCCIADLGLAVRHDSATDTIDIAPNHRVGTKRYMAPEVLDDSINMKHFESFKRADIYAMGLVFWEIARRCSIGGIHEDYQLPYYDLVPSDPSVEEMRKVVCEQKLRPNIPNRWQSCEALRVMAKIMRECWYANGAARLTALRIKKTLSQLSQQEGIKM", "chain of UniProt P54756 (whole entry, looked up)": "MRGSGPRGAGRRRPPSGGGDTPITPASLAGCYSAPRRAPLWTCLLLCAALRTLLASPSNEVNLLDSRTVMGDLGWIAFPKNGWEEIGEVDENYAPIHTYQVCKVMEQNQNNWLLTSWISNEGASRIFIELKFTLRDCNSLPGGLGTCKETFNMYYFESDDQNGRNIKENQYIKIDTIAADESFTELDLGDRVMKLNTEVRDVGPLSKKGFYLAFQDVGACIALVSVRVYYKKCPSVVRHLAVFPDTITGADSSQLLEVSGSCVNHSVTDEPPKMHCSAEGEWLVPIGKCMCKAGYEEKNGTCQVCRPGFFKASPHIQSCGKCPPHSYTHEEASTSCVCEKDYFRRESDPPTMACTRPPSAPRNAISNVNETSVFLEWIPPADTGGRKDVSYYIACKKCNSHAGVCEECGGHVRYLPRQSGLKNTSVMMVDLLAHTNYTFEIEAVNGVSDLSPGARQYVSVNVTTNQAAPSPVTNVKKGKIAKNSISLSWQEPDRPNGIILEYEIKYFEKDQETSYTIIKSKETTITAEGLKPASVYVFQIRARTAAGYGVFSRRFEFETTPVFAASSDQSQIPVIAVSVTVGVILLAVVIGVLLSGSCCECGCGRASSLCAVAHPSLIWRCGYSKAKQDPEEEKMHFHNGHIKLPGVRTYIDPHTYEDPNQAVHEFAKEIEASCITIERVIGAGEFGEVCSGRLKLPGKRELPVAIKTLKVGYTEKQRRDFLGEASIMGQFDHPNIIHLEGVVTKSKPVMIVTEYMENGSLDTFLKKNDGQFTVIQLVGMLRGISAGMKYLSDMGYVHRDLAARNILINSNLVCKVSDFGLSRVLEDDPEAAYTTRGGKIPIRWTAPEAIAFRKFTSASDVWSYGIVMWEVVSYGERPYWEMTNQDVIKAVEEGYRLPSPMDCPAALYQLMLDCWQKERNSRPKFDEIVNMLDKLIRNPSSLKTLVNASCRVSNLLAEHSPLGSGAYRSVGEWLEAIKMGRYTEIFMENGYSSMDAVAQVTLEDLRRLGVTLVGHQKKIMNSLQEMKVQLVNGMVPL", "chain of UniProt Q99759 (whole entry, looked up)": "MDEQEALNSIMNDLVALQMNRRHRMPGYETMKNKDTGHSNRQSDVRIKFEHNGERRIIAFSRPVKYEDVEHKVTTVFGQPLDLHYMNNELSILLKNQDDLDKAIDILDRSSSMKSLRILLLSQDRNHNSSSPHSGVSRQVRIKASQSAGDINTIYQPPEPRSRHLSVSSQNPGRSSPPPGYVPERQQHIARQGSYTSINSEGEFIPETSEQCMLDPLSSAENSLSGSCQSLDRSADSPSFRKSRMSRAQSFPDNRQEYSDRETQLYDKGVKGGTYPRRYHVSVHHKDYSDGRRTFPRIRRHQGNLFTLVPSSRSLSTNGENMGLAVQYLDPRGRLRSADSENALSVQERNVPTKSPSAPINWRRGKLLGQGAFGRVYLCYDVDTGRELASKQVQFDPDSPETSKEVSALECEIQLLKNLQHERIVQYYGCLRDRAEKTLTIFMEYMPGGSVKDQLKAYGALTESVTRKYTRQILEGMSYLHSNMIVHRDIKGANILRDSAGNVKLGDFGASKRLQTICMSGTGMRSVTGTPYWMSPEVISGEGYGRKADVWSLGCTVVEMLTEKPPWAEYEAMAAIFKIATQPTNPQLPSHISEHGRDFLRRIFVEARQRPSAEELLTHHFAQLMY", "chain of UniProt O94804 (whole entry, looked up)": "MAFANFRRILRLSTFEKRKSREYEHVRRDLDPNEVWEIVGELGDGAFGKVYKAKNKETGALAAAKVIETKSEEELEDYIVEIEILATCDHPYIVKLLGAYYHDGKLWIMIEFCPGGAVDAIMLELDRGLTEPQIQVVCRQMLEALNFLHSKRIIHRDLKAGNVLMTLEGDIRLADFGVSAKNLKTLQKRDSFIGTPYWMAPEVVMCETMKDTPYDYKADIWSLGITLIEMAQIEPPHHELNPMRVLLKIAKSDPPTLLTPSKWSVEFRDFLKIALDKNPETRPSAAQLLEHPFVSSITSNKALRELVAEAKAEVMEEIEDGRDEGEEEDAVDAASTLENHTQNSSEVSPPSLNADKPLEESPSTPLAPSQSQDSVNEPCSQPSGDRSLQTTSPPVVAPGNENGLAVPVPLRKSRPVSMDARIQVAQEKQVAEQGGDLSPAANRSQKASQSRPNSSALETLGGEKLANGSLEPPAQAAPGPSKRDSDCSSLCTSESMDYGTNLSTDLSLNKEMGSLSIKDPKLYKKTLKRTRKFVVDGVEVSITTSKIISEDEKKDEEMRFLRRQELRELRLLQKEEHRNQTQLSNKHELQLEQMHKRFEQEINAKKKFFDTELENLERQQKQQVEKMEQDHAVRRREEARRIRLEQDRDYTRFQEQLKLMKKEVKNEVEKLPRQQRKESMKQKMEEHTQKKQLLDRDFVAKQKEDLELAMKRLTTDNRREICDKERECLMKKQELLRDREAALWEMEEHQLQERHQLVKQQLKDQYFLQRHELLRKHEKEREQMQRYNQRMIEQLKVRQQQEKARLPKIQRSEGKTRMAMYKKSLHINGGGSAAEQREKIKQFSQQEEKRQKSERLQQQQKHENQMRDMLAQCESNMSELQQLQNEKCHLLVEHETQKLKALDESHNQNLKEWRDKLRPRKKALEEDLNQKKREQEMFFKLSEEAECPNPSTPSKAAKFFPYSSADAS", "chain of UniProt Q00535 (whole entry, looked up)": "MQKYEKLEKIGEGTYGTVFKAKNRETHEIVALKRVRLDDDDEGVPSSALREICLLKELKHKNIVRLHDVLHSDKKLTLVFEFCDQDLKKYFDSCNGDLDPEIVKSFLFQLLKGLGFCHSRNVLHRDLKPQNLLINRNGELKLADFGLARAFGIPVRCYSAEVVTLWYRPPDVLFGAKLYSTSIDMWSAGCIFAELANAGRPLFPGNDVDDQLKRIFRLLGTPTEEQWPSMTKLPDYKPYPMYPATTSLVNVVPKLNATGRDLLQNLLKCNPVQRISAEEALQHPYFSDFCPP"}
{"data": "Series 1", "SMILES": "C[C@@H]1CCN(C(=O)CC#N)C[C@@H]1N(C)c1ncnc2[nH]ccc12", "observed": "enzyme activity", "action": "inhibitor", "tested at": "0.5 µM", "baseline": "control"}
{"target": "TGFBR1 (Homo sapiens, UniProt P36897)", "remaining activity": "98.8%"}
{"target": "DAPK1 (Homo sapiens, UniProt P53355)", "remaining activity": "109%"}
{"target": "STK39 (Homo sapiens, UniProt Q9UEW8)", "remaining activity": "95.1%"}
{"target": "Tyrosine-protein kinase Lyn, isoform B (LYN, Homo sapiens, UniProt P07948)", "remaining activity": "98.6%"}
{"target": "CAMKK2 (Homo sapiens, UniProt Q96RR4)", "remaining activity": "97.7%"}
{"target": "IKBKB (Homo sapiens, UniProt O14920)", "remaining activity": "88.2%"}
{"target": "IKBKE (Homo sapiens, UniProt Q14164)", "remaining activity": "94.8%"}
{"target": "PRKCA (Homo sapiens, UniProt P17252)", "remaining activity": "78.7%"}
{"target": "MAP3K3 (Homo sapiens, UniProt Q99759)", "remaining activity": "115%"}
{"target": "NEK2 (Homo sapiens, UniProt P51955)", "remaining activity": "103%"}
{"target": "MAPK9 (Homo sapiens, UniProt P45984)", "remaining activity": "112%"}
{"target": "GRK3 (Homo sapiens, UniProt P35626)", "remaining activity": "99.2%"}
{"target": "STK10 (Homo sapiens, UniProt O94804)", "remaining activity": "92.9%"}
{"target": "Cyclin-dependent kinase 5, with p25 (CDK5, Homo sapiens, UniProt Q00535)", "remaining activity": "100%"}
{"target": "TGFBR2 (Homo sapiens, UniProt P37173)", "remaining activity": "98.8%"}
{"target": "Protein kinase C beta type, isoform beta-I (PRKCB, Homo sapiens, UniProt P05771)", "remaining activity": "101%"}
{"target": "cGMP-dependent protein kinase 1, isoform beta (PRKG1, Homo sapiens, UniProt Q13976)", "remaining activity": "87.8%"}
{"target": "DAPK2 (Homo sapiens, UniProt Q9UIK4)", "remaining activity": "89.5%"}
{"target": "CHEK2 (Homo sapiens, UniProt O96017)", "remaining activity": "104%"}
{"data": "Series 2", "Structure (SMILES)": "COc1ccc2c(O[C@@H]3C[C@H]4C(=O)N[C@]5(C(=O)O)CC5/C=C\\CCCCC[C@H](NC(=O)OC5CCCC5)C(=O)N4C3)cc(-c3csc(NC(=O)C(C)C)n3)nc2c1C (some centres unmarked)", "observed": "cell-free assay", "method": "competition with immobilised ligand", "tested at": "1 µM"}
{"target": "STK4 (Homo sapiens, UniProt Q13043)", "remaining binding [%]": 100}
{"target": "CIT (Homo sapiens, UniProt O14578)", "remaining binding [%]": 99}
{"target": "PIK3CA (Homo sapiens, UniProt P42336, H1047Y)", "remaining binding [%]": 100}
{"target": "BRSK1 (Homo sapiens, UniProt Q8TDC3)", "remaining binding [%]": 85}
{"target": "Tyrosine-protein kinase ABL1, non-phosphorylated (ABL1, Homo sapiens, UniProt P00519)", "remaining binding [%]": 74}
{"target": "FGFR2 (Homo sapiens, UniProt P21802)", "remaining binding [%]": 96}
{"target": "CDKL1 (Homo sapiens, UniProt Q00532)", "remaining binding [%]": 99}
{"target": "EPHA5 (Homo sapiens, UniProt P54756)", "remaining binding [%]": 97}
{"target": "TNK2 (Homo sapiens, UniProt Q07912)", "remaining binding [%]": 100}
{"target": "EPHB1 (Homo sapiens, UniProt P54762)", "remaining binding [%]": 100}
{"target": "TAOK1 (Homo sapiens, UniProt Q7L7X3)", "remaining binding [%]": 96}
{"target": "MAP2K2 (Homo sapiens, UniProt P36507)", "remaining binding [%]": 77}
{"data": "Series 3", "target": "ABI1, truncated, D143A, DHFR fusion (Arabidopsis thaliana)", "method": "DHFR PCA, deep sequencing", "sample": "yeast", "notes": "methotrexate growth selection, single substitutions", "with": "(+)-ABA 200 µM", "baseline": "wild-type fitted maximum", "direction": "higher = stronger binding", "starting sequence": "PYL1, truncated, DHFR fusion (Arabidopsis thaliana); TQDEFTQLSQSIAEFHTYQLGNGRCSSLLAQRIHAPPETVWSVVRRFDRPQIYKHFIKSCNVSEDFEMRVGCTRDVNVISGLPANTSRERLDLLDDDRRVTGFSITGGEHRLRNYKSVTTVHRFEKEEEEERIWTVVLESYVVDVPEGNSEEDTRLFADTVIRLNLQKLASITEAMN"}
{"Substitution": "F66Q", "relative binding score": "101%"}
{"Substitution": "Y18S", "relative binding score": "87.8%"}
{"Substitution": "S87G", "relative binding score": "11.4%"}
{"Substitution": "R90H", "relative binding score": "83.8%"}
{"Substitution": "H16Y", "relative binding score": "-21.8%"}
{"Substitution": "L29F", "relative binding score": "55%"}
{"Substitution": "S150E", "relative binding score": "74.4%"}
{"Substitution": "R32L", "relative binding score": "90%"}
{"data": "Mixed results"}
{"Molecule": "c1ccc(Oc2ccc(Nc3c4c(nc5ccccc35)CCC4)cc2)cc1", "organism": "Leishmania donovani", "test": "parasite killing", "system": "DD8, intracellular amastigotes", "conditions": "80 µM, 96 h", "inhibition [%]": 100}
{"Molecule": "medroxyprogesterone", "organism": "Sarcocystis neurona", "test": "parasite growth", "conditions": "10 µM, second screen", "inhibition [%]": 6.7}
